Assay results gathered from unrelated publications.
Every numbered part comes from another study and shows a few of its results, in no order.

Study 1
Target: Sal-like protein 4, full length isoform A (SALL4, Homo sapiens, UniProt Q9UJQ4, residues 1-1053)
Sequence of UniProt Q9UJQ4 (whole entry, looked up): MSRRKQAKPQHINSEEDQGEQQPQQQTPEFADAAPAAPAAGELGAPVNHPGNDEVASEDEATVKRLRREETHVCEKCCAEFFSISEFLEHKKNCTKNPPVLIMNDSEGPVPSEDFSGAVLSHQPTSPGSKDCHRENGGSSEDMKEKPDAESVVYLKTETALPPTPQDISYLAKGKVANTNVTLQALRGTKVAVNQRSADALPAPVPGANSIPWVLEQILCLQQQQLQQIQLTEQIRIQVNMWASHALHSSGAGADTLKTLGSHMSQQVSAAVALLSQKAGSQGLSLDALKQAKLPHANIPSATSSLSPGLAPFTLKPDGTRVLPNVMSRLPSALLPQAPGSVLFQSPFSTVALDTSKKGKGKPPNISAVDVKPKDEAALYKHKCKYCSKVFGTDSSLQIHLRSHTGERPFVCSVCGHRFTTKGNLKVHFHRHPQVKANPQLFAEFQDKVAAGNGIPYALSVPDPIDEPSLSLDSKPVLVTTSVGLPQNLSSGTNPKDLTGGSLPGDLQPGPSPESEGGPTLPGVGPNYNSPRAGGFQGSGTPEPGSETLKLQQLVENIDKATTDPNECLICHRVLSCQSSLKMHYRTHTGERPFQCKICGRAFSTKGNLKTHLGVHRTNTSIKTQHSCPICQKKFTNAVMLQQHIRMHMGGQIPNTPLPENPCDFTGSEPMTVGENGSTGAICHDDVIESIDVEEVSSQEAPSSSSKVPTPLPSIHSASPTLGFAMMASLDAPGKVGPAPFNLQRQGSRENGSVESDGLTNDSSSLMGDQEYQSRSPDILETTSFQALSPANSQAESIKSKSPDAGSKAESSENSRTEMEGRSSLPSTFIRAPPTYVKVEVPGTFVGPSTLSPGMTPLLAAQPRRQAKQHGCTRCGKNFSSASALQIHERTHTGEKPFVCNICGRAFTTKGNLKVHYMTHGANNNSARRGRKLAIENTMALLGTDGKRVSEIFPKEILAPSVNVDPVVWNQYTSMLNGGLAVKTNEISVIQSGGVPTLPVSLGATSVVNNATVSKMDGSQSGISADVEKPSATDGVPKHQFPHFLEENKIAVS
Method: universal PBM
Molecule type: double-stranded DNA, one strand shown
Medium: in vitro
Tested at: 600 nM
Setting: 8-mer, flanks averaged, mean of replicates
Reading: higher = stronger binding
| Sequence | E-score |
| --- | --- |
| AATCCGAG | 0.0423 |
| GGACCAAA | -0.125 |
| CTACGCAG | -0.198 |
| ACGTGGAT | 0.0536 |
| ACGTTCTG | -0.193 |
| ATTCGCTG | -0.0271 |
| CGTGAGTA | -0.0706 |
| AGGTTTAG | -0.026 |
| CTGTCACA | 0.00634 |
| CCAACTGA | -0.03 |
| AAGGTTAG | 0.0682 |
| GGGACACA | -0.209 |

Study 2
Target: Interferon regulatory factor 7, full length, phosphomimetic (IRF7, Homo sapiens, UniProt Q92985, residues 1-503, S101K/S471D/S472D/S475D/S476D/S477D/S483D/S484D/S487D)
Sequence of UniProt Q92985 (whole entry, unmodified, looked up): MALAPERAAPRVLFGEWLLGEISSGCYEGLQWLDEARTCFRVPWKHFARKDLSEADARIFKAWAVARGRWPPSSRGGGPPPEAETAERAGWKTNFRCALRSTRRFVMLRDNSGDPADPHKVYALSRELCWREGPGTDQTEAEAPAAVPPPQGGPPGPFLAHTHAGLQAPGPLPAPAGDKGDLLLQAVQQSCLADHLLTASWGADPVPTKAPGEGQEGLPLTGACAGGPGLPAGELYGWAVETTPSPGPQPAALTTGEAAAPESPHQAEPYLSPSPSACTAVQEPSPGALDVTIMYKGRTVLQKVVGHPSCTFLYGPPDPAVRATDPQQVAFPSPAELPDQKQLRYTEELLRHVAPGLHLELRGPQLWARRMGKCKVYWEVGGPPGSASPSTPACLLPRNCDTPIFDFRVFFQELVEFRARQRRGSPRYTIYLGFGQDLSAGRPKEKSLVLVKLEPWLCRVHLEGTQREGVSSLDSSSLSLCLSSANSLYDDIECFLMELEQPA
Method: protein-binding microarray
Molecule type: double-stranded DNA, one strand shown
Medium: in vitro
Tested at: 250 nM
Setting: 60-bp whole probe
Together with: salmon DNA 0.4 mg/ml
Reference: random background probes
Reading: higher = stronger binding
Shared flanks, not repeated: GCCTAGCAC … GTCTTGATTCGCTTGACGCTGCTG
| Sequence | log fluorescence [z-score] |
| --- | --- |
| TCATGTTTCTCAAATGTTACTGTGCTA | 1.3 |
| TTAGGACTGCTACTGCTTAAGTGCTAG | -0.724 |
| TTAGGACTGGGTCTCGATTAGTGCTAG | 0.773 |
| TTAGTACTGCTTATCCTTTAGTGCTAG | 0.766 |
| AAACGGATGATCTCTCTGGGCGTGCTA | -1.01 |
| TTAGAAGTGGGGACTGGATTAGTGCTA | -0.665 |
| TTAGATTTCAGACTGTATTAGTGCTAG | 0.183 |
| GGCGATCTCAGTTTCGAGACGTGCTAG | 3.02 |
| TTAGGTACCGACACTGGGTTAGTGCTA | -0.133 |
| TCAGATTTTCCCATGAGACTGTGCTAG | 1.02 |
| CACAGAACATATTAGTATATGTGCTAG | -0.00815 |

Study 3
Target: Fragile X messenger ribonucleoprotein 1, C-terminal low-complexity region (Fmr1, Mus musculus, UniProt P35922)
Method: RNA Bind-n-Seq
Molecule type: RNA
Medium: in vitro
Tested at: 200 nM
Setting: whole 134-nt RNA, ends assumed
Together with: 150 mM LiCl
Reference: input library
Reading: higher = stronger binding
Each molecule: 7-deaza-guanosine replaces G
Shared flanks, not repeated: GGGAGUUCUACAGUCCGACGAUC … UGGAAUUCUCGGGUGUCAAGG
| Sequence | log2 enrichment |
| --- | --- |
| CACAGACAACACGCACCCACACAGACACAGAGGGAAGGGGUUGGGAUGGGGACAGGGUGCACAGCAGGGCGGGGUAGGACCCCAGGCCCU | -0.978 |
| CAAGUCCUGUGCUACACAUCGUAUGUACCGAAUCGGGGUUUGGUUUGGGUUUGGGAAAGUAUUAUGUUACGCCGUUCGGAUCUGCACUUC | -1.58 |
| UAACUUUAGAGGAGGAUCUGAUGGAUAUGGCAGUGGACGUGGAUUUGGAGAUGGCUAUAAUGGGUAUGGAGGAGGACCUGGAGGUGGCAA | 0.103 |
| GUCCUGUGCUACACAUCGUAUGUACCGAAUCGGGGUGGGGUUUUUUUGGGGAAAGGGGAAAGUAUUAUGUUACGCCGUUCGGAUCUGCAC | 0.429 |
| ACCAUGCAGGUGGGCAUCUUUGGGAAAAAGGGCAAGGGGGGGAUAGGGAGGGGGGUAACACUUUGGGAACAGGUGGUCCCAGGUCGUUUC | 1.19 |
| AGUCCUGUGCUACACAUCGUAUGUACCGAAUCGGUUUUUUUGGUUUUUUUGGUUUGGAAAGUAUUAUGUUACGCCGUUCGGAUCUGCACU | -2.6 |
| ACCAUGCAGGUGGGCAUCUUUGCGAAGUGGGGCAAGGGGGGGAUAGGGAGGGGGGUAACACUUUGGGAACAGGUGGUCCCAGGUCGUUUC | 1.08 |

Further values, each from its own experiment
| Molecule | target | assay | system | setting | scale | quantity | result |
| --- | --- | --- | --- | --- | --- | --- | --- |
| PhoQ, residues 284 288 289 292 302 303 AEGLLW | PhoP, residues 12 14 15 18 19 SYFRT (Escherichia coli, UniProt P23836) | Sort-seq, item: YFP reporter | E. coli | PhoQ-PhoP variant library, together with: 10 µM Mg2+ | reference: high Mg2+ state, higher = stronger signaling | fold induction | 1.43 |

Excerpt of the above (study 2):
| Sequence | log fluorescence [z-score] |
| --- | --- |
| TTAGGTACCGACACTGGGTTAGTGCTA | -0.133 |
| AAACGGATGATCTCTCTGGGCGTGCTA | -1.01 |
